Experimental data collected from several papers.
Numbered parts are unrelated; each lists some results of a single study. Positions count from the first letter of the parent shown.

Series 1 — method: universal PBM; molecule type: double-stranded DNA, one strand shown; medium: in vitro; concentration: not given; direction: higher = stronger binding
Target: Sal-like protein 4, full length isoform B (SALL4, Homo sapiens, UniProt Q9UJQ4-2, residues 1-616)
Setting: 8-mer, flanks averaged, mean of replicates
Construct (chain): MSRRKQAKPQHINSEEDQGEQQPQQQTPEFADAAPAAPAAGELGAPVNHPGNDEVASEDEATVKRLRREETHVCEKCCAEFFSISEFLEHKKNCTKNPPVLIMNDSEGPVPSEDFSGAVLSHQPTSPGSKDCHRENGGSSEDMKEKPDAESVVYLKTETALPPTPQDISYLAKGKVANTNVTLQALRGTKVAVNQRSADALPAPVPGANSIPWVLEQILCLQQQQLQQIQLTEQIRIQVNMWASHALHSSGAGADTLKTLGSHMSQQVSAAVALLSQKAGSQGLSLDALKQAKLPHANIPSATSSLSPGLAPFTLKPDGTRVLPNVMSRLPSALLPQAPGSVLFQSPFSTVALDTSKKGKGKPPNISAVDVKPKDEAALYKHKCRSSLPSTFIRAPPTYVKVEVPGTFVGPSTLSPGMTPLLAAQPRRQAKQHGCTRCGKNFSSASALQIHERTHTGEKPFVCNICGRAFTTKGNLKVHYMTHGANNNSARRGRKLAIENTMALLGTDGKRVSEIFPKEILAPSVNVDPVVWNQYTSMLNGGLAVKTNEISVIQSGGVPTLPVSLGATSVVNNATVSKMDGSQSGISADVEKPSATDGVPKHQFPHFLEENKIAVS
| Strand | E-score |
| --- | --- |
| ATTATCCG | 0.19 |
| CACTATAG | 0.149 |
| ACAGGACG | -0.209 |
| AGGATGTG | -0.00707 |
| GATTTCGA | -0.0387 |
| CAGGCATG | -0.0778 |
| CATGTCCG | -0.305 |
| AGGAGCAC | -0.166 |
| AAGTCGGC | -0.25 |
| ACTTTTCC | 0.158 |
| CTCAGTTC | -0.0014 |
| CCATTGCC | -0.121 |
| AAGTTTGT | 0.141 |
| AGGGCGAG | -0.28 |

Series 2 — target: CCNB2, cyclin fold, Cln2 fusion (human); method: yeast growth competition, sequencing; medium: yeast; setting: weak parent motif; relative to: not given; direction: higher = stronger binding
Starting sequence: PKN2 docking peptide (human); VSAVRKLDFSDTM
| Change | normalised enrichment score |
| --- | --- |
| VSAVRKLDFSDWM [T12W] | 0.529 |
| VSAVRKLDFCDTM [S10C] | 0.335 |
| VSAVIKLDFSDTM [R5I] | -0.094 |
| VSAVRKLKFSDTM [D8K] | 0.264 |
| VSAVRKLDFSETM [D11E] | 0.44 |
| VSAVRKIDFSDTM [L7I] | 0.733 |
| VSAVRKCDFSDTM [L7C] | 0.429 |
| VSAVRKLRFSDTM [D8R] | 0.166 |
| VSAVRGLDFSDTM [K6G] | 0.0486 |

Series 3 — method: protein binding microarray; molecule type: double-stranded DNA, one strand shown; medium: in vitro; concentration: not given; relative to: not given; direction: higher = stronger binding
Target: Histone acetyltransferase KAT6A, both winged helices, GST fusion (KAT6A, Homo sapiens, UniProt Q92794, residues 1-181)
Setting: 8-mer, flanks averaged, mean of 2 arrays, mostly near background
Target sequence (chain): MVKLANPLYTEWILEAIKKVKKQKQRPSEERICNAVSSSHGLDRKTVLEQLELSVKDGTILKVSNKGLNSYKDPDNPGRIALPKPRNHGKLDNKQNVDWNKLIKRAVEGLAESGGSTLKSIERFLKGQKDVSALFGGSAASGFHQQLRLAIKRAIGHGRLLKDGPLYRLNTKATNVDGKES
| Strand | E-score |
| --- | --- |
| AGCCGGAC | 0.187 |
| AAAGATTT | -0.0198 |
| CAATGAGA | -0.209 |
| CGGAACCC | 0.24 |
| ATTCGCTG | -0.0289 |
| CTGCTCAC | -0.182 |
| ACTCTCTG | -0.0899 |
| ACACCATA | -0.0233 |
| CCGTGGCC | 0.194 |
| GTCTAATA | 0.0616 |
| CAACACCG | 0.165 |
| AACGTTGT | 0.00983 |

Single results of other studies
| Molecule | target | assay | system | conditions | how to read | endpoint | value |
| --- | --- | --- | --- | --- | --- | --- | --- |
| PhoQ, residues 284 288 289 292 302 303 SNSSNI | PhoP, residues 12 14 15 18 19 LHATL (Escherichia coli, UniProt P23836) | Sort-seq, refers to: YFP reporter | E. coli | PhoQ-PhoP variant library, with: 10 µM Mg2+ | relative to: high Mg2+ state, higher = stronger signaling | fold induction | 5.52 |
